Measured values from different studies.
A part holds a random share of what one study measured.

Study 1
Target: Fragile X messenger ribonucleoprotein 1, C-terminal low-complexity region (Fmr1, Mus musculus, UniProt P35922)
Method: RNA Bind-n-Seq
Form: RNA
Sample: in vitro
Concentration: 200 nM
Notes: whole 134-nt RNA, ends assumed
Together with: 150 mM LiCl
Baseline: input library
Reading: higher = stronger binding
Each molecule: 7-deaza-guanosine replaces G
For `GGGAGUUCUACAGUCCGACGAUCGUCCUGUGCUACACAUCGUAUGUACCGAAUCGGGAAAAAGGGAAAAAGGGGAAAAAGGAAAGUAUUAUGUUACGCCGUUCGGAUCUGCACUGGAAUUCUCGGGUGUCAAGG`, the log2 enrichment was 0.28.
With `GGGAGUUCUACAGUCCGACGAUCCCUGUGCUACACAUCGUAUGUACCGAAUCGGGGAAAGGGGUUUUUUUGGGGAAAAAGGGGAAAGUAUUAUGUUACGCCGUUCGGAUCUGCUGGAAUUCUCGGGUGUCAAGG` the log2 enrichment was -0.666.
With `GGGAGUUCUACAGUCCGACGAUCAGUCCUGUGCUACACAUCGUAUGUACCGAAUCGGGGAAAAAGGGGAAAGGGGUGGGGAAAGUAUUAUGUUACGCCGUUCGGAUCUGCACUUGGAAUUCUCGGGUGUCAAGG` the log2 enrichment was -0.392.
`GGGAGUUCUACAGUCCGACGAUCCCUGUGCUACACAUCGUAUGUACCGAAUCGGUUUUUUUGGGUUUUUUUGGGUUUUUUUGGGAAAGUAUUAUGUUACGCCGUUCGGAUCUGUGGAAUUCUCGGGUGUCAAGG` gave a log2 enrichment of -0.933.
`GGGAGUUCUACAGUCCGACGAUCUGGGAGGUGGAUUUUGUUUAUUUUUUUAGCUCAUUUCCACGGGUGGGAAUUUUUUUUUAAUAUGUGUCAUGAAUAAAGUUGUUUUUGAAAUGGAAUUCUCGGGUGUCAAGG` has a log2 enrichment of 0.681.
`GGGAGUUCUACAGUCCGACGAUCAGUCCUGUGCUACACAUCGUAUGUACCGAAUCGGAAAAAAAGGUUUUUUUGGUUUGGAAAGUAUUAUGUUACGCCGUUCGGAUCUGCACUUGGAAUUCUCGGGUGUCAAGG` has a log2 enrichment of -4.04.
The log2 enrichment of `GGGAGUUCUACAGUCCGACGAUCCUGUGCUACACAUCGUAUGUACCGAAUCGGGGAAAAAAGGGAAAAAAGGGGAAAAAAGGGGAAAGUAUUAUGUUACGCCGUUCGGAUCUGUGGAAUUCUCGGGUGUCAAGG` is reported as 0.821.
`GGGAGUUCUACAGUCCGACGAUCUGGGAGGUGGAUUUGGUUUAUUUUUUUAGCUCAUUUCCAGGGGUGGGAAUUUUUUUUUAAUAUGUGUCAUGAAUAAAGUUGUUUUUGAAAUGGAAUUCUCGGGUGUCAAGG` gave a log2 enrichment of 0.51.

Study 2
Target: RNA binding protein fox-1 homolog 2, RRM domain, GST-SBP tag (RBFOX2, Homo sapiens, UniProt O43251-10, residues 100-194)
Method: RNA Bind-n-Seq
Form: RNA
Sample: in vitro
Concentration: 365 nM
Notes: natural RNA segment, single round, ends assumed
Baseline: no-protein control
Reading: higher = stronger binding
Construct (chain): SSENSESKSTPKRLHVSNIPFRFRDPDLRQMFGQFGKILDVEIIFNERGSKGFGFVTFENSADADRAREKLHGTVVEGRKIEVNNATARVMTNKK
For `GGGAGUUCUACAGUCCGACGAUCCUAUGCAAACACAGGCCCUGACCUCCCCAUGUCUGUUCCUGGUCCUCACAGCCCGACACGCCCUGCUGAGGCAGACGAAUGACAUUAAGUUCUGAAGCAGAGUGGAGAUAUGGAAUUCUCGGGUGCCAA`, “RBNS enrichment (R)” read 2.3.
Under “RBNS enrichment (R)”, `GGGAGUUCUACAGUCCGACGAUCAGGUAAAGACAGGGUUUCCUUACUUAACGGAUUUGAGCGCUUCUGUUCUCCAAACACAAUGGAAUUUCUUGUUCAAGAGCAGCUUCCAGAGUUGAGCCAGCCCUCGCUGCUGGAAUUCUCGGGUGCCAA` is recorded as 0.374.
For `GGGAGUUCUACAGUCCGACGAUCAAGCAAGAGGGGGCCGUUUUAAUGAAUUAGAUUGAAAAAUAGGCCUAAGCCGUUUGUACCUUAGUUUUAGCGUUCGGCCUCACCUAGCAAUCAAGGGCCCGUUUGGAGAAUGGAAUUCUCGGGUGCCAA`, “RBNS enrichment (R)” read 0.599.
`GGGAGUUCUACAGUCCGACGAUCACUUGAGGUAUGUACCAUUUGUAUACCUGAAUUUAUUUUAAAGAUAAACUGAAAUGCACAUAGCCAAGUCUUGACAUUACAAGAUUGUGUAUUUCUUAAAAUACAACUUUUGGAAUUCUCGGGUGCCAA`: “RBNS enrichment (R)” 0.41.
`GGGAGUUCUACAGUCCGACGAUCACCACAGAGUGCACUCGAGGGGACUUUCAGUCACAGGAUUUCAUAAUUGUCAUUGUCACACUUUCAAAUUUUUGUACAUCAGUGAAUUUUUUUAUAUUAAAAGGUUGAGCUGGAAUUCUCGGGUGCCAA`: “RBNS enrichment (R)” 0.481.
`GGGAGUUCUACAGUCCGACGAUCUUUCCAUCCAAGAGUCAGUGUUGCUGUGAGAUUUGACGUGUACUUGCUAAAGACGAGAGAGAAACCACGUGAAACCUACAUUGCUAUGUUCAUAAUUGCCAAAGCAGUAUUGGAAUUCUCGGGUGCCAA` — result for “RBNS enrichment (R)”: 0.378.
`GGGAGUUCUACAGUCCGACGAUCAGACUGCCCUUGAUUUGCCCCUUGGUGCCAUGUAUUUCAGAGUUAAGGUCCUGCUUUCUCCACCUGGAACCAAUGUCGGCAAUACCUAGUCCCACUUCUCAAACUGGAGCUGGAAUUCUCGGGUGCCAA`: “RBNS enrichment (R)” 0.194.
`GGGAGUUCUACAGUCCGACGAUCAAUUCUUAAAGUGGUGGGGUAUUAGUACUAGUAGUUUUAUGUUGUCUAAUUCUAGCCAAGCUUCUGUGUGAAGCUAUAAGGUCUGUGAAUGCCAUACGGCCCUUUAUUGCUGGAAUUCUCGGGUGCCAA` — result for “RBNS enrichment (R)”: 3.42.

Study 3
Target: RING finger protein unkempt homolog, zinc fingers 1-6, GST-SBP tag (UNK, Homo sapiens, UniProt Q9C0B0, residues 30-357)
UniProt Q9C0B0, sequence (30-357, looked up): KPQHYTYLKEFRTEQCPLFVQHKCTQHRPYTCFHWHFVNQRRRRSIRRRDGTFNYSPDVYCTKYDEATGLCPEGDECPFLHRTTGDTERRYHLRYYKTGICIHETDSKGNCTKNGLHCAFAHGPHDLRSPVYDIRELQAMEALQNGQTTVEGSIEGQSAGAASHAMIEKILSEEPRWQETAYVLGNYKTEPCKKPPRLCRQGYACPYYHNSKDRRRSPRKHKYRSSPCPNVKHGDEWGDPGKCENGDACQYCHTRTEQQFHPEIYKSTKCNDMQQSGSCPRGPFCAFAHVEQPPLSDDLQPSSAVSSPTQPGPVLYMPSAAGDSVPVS
Method: RNA Bind-n-Seq
Form: RNA
Sample: in vitro
Concentration: not given
Notes: RNA with constant flanks, human and mouse sites, ends assumed
Baseline: input RNA pool
Reading: higher = stronger binding
With `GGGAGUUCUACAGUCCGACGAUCAGGCUAAUCACCAAUUUCUUAUUUUUUGGUCCAGUUGGAUUCAAUUUUUUGUUUAACAUGAUUUUUCUAUACCGUUAUUGUCGAAUGCUAGAAGAAGGCUCUUUCCGAGGUCGGACAGCACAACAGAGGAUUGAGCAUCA` the bound/input enrichment was 1.33 ratio.
`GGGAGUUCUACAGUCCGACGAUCGCACACACGGGCGCGCACACACACGCGCGUACACACUGGGUCUCCAGGCAGCGGCCGUCGCCGCAUCCCCGGCAGCAGCUCCAGGCAAAGUGACAGAGGACAGUGCUGCUGUGAGUUUGACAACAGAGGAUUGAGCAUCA` gave a bound/input enrichment of 0.208 ratio.
For `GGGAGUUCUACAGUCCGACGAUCCGCUCCUUUGGAAAUAAUAAAUAUCCACAAAAUAGUGAUGAUGAAGAAAAUGAACCACAGAUUGAAAAAGAGGAAAUGGAGCUUAGUUUGGUGAUGUCCCAGAGAUGGGACAGCAAUAUUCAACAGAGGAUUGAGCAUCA`, the bound/input enrichment was 0.842 ratio.
`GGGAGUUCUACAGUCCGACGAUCGGCAUCAGAUGGUCUCUGGGAUGCUUUCAGCAAUGAAGAAGCAGUUCGAUUCAUCAAGGAGCGCUUGGAUGAACCUCACUUUGGGGCCAAGAGCAUAGUUUUACAGUCAUUUUACAGAGGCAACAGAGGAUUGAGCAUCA` has a bound/input enrichment of 2.7 ratio.
With `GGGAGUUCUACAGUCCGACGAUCUUUUGGAAACAGUUCAGGCUUUGGGGUGAGCCUGUCAAUCUUCGUGAACAACAUGAUGCUUUAGAGUUCUUUAAUUCUUUGGUGGAUAGUUUAGAUGAAGCUUUAAAAGCCUUAGGGCAUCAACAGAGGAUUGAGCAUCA` the bound/input enrichment was 0.811 ratio.
With `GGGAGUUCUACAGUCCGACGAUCUUUAUGACAUGUCCCUUUAUAUUGAAUGCUGUCACAAAGAAUUUGGGAUUAUAUUAUGACAAUAGAAUUCGCAUGUACAGUGAACGAAGAAUCACUGUUCUCUACAGCUUAGUUCAAGGACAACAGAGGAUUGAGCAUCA` the bound/input enrichment was 0.287 ratio.
With `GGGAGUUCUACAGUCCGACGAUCAACCCCAAUGCCUGCAGCUACGGUGUGACUGUGGGUGUGUUGGCCUUCCUCACCUGCCUGCUCUACCUGGCGCUCGAUGUGUACUUCCCGCAGAUCAGCAGUGUCAAGGACCGCAAGAAGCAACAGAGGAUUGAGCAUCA` the bound/input enrichment was 0.118 ratio.
`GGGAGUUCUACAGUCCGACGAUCUCCUGAAGCUUUGUGUUUGGCUGCACCUGCAUAAGCUGCUACAAAUAGAAUAAAGAAUUUCAUAGCCUGUAUCUAUCAUUUAGAUGCAUGGAAAAAAAUGGGCUUUGCACACAAUGGGUUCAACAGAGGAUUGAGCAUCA` has a bound/input enrichment of 7.1 ratio.

Study 4
Target: TAR DNA-binding protein 43, full length, His tag (TARDBP, Homo sapiens, UniProt Q13148, residues 1-414)
Method: RNA Bind-n-Seq
Form: RNA
Sample: in vitro
Concentration: 20 nM
Notes: 6-mer, flanks averaged, single round
Together with: 150 mM KCl
Baseline: input library
Reading: higher = stronger binding
Under “6-mer enrichment (R)”, `UUGGUU` is recorded as 0.721.
Under “6-mer enrichment (R)”, `GGGAUU` is recorded as 1.63.
`ACCGGU`: “6-mer enrichment (R)” 0.801.
Under “6-mer enrichment (R)”, `CACGCA` is recorded as 0.719.
For `GGCUAC`, “6-mer enrichment (R)” read 0.982.
`ACAGCA` — result for “6-mer enrichment (R)”: 0.695.
Under “6-mer enrichment (R)”, `GAUGGG` is recorded as 4.03.
`UCUGAC` — result for “6-mer enrichment (R)”: 0.598.
For `AAUUAC`, “6-mer enrichment (R)” read 0.626.
Under “6-mer enrichment (R)”, `AGCGCU` is recorded as 0.765.
Under “6-mer enrichment (R)”, `CUCGCG` is recorded as 0.834.
`AAGGUA`: “6-mer enrichment (R)” 0.785.
`UGAGCC` — result for “6-mer enrichment (R)”: 0.81.
Under “6-mer enrichment (R)”, `GCCGCA` is recorded as 0.935.
For `AUCAUG`, “6-mer enrichment (R)” read 0.637.
`UUCCAU` — result for “6-mer enrichment (R)”: 0.561.
`ACUCCG`: “6-mer enrichment (R)” 0.654.
`GUACAG` — result for “6-mer enrichment (R)”: 0.954.
Under “6-mer enrichment (R)”, `GUUUAG` is recorded as 0.835.
`AUGCAG`: “6-mer enrichment (R)” 0.94.
`GUCACC` — result for “6-mer enrichment (R)”: 0.708.
`AAUUAA` — result for “6-mer enrichment (R)”: 0.663.
